{"data": "Assay results gathered from unrelated publications", "note": "Every numbered part comes from another study and shows a few of its results, in no order. Substitutions count along the parent as printed.", "chain of UniProt P30291 (whole entry, looked up)": "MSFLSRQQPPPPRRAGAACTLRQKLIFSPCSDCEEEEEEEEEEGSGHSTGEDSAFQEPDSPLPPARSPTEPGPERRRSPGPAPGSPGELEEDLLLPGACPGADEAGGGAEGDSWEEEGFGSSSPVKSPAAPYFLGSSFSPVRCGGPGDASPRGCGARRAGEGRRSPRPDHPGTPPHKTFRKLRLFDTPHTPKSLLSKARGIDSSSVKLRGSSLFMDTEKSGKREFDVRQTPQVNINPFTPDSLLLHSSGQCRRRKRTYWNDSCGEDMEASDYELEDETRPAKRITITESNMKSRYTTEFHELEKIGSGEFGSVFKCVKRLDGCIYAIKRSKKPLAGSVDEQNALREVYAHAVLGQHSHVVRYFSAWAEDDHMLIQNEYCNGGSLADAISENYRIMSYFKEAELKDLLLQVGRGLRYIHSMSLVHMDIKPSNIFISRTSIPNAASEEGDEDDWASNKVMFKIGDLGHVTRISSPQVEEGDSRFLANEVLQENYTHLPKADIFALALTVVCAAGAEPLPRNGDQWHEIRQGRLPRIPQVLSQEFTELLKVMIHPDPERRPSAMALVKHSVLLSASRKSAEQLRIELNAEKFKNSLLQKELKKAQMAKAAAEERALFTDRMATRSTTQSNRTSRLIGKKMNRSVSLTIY", "chain of UniProt Q14004 (whole entry, looked up)": "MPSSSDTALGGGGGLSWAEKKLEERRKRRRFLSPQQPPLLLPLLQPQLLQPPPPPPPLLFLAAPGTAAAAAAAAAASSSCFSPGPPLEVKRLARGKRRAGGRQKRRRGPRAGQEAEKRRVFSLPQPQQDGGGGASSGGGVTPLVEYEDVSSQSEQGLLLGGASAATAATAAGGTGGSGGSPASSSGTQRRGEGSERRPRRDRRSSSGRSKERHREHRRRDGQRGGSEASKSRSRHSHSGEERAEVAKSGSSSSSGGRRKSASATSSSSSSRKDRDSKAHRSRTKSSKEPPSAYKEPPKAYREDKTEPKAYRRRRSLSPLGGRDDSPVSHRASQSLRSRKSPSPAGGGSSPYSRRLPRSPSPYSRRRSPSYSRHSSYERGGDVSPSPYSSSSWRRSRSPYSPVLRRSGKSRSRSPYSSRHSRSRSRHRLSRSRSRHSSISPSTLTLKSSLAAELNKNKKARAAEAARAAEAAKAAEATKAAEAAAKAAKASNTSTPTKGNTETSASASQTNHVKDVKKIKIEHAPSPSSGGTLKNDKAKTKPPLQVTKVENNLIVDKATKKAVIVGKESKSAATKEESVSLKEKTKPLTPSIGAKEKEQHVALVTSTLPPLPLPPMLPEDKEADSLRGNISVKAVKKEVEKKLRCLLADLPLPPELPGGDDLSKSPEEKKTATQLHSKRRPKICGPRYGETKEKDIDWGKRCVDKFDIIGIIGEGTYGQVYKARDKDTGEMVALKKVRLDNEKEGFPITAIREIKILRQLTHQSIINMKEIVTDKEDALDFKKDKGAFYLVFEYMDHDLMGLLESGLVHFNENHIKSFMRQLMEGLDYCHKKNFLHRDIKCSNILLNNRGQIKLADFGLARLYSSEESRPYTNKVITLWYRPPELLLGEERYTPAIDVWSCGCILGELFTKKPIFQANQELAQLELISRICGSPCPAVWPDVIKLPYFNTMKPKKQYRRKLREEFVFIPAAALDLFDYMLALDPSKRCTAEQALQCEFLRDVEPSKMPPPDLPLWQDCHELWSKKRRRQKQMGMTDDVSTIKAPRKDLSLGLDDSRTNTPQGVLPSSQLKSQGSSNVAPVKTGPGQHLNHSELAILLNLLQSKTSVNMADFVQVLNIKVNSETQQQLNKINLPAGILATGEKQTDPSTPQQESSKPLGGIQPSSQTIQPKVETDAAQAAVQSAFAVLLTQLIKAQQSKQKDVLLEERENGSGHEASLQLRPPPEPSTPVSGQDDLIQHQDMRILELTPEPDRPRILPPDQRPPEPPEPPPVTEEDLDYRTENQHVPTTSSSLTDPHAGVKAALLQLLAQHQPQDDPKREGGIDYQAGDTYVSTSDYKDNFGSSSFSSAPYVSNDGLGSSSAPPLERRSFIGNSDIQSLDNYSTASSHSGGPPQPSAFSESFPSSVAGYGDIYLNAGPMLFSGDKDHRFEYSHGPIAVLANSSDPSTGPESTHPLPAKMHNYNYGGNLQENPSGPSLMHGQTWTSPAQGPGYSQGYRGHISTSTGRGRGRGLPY", "chain of UniProt Q15349 (whole entry, looked up)": "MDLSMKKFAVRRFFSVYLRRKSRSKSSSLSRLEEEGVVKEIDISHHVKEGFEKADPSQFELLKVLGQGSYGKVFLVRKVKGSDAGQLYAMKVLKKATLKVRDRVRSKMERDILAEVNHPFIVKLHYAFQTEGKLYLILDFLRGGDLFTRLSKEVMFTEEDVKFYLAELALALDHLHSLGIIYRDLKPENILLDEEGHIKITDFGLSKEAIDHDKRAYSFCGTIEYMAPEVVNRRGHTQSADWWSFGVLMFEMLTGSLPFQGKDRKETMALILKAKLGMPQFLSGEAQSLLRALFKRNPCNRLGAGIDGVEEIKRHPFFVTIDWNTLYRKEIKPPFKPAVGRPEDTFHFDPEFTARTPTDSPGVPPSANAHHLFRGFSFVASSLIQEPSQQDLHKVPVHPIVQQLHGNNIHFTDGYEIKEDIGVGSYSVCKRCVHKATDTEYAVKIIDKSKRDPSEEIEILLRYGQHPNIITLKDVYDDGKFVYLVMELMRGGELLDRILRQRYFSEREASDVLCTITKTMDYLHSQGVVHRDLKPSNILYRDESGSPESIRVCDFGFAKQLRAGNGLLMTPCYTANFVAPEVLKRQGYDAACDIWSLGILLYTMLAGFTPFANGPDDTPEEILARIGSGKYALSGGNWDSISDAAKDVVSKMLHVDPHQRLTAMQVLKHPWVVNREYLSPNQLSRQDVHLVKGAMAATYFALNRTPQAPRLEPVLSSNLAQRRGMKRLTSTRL", "chain of UniProt Q02763 (whole entry, looked up)": "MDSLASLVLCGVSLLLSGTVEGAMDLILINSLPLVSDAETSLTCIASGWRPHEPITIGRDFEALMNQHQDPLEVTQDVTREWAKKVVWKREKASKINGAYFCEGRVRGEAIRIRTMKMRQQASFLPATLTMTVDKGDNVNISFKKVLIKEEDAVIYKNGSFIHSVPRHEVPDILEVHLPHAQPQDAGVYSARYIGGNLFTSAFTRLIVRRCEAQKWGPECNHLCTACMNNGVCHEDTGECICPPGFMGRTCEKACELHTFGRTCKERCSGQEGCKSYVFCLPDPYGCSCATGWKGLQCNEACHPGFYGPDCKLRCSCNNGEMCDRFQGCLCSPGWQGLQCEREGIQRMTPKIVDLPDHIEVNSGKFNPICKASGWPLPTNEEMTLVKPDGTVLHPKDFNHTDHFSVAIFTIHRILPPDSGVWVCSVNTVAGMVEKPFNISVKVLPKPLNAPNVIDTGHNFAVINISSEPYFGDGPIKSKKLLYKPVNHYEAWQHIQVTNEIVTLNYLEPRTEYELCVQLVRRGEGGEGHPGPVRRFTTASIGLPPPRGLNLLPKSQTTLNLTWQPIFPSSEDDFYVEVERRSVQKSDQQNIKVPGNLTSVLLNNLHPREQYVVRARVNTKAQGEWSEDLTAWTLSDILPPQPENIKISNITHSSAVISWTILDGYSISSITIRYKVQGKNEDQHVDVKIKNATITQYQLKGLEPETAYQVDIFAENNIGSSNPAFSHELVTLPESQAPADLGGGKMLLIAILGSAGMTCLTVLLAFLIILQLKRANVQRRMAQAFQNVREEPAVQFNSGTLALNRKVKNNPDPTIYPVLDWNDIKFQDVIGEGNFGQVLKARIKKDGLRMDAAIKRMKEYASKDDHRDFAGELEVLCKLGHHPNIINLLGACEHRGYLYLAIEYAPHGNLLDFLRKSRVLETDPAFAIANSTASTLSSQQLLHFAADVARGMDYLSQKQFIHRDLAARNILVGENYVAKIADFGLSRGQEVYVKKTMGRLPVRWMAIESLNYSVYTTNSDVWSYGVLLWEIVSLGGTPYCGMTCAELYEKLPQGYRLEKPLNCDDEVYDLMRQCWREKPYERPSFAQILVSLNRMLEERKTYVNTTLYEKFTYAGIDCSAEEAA", "chain of UniProt O75460 (whole entry, looked up)": "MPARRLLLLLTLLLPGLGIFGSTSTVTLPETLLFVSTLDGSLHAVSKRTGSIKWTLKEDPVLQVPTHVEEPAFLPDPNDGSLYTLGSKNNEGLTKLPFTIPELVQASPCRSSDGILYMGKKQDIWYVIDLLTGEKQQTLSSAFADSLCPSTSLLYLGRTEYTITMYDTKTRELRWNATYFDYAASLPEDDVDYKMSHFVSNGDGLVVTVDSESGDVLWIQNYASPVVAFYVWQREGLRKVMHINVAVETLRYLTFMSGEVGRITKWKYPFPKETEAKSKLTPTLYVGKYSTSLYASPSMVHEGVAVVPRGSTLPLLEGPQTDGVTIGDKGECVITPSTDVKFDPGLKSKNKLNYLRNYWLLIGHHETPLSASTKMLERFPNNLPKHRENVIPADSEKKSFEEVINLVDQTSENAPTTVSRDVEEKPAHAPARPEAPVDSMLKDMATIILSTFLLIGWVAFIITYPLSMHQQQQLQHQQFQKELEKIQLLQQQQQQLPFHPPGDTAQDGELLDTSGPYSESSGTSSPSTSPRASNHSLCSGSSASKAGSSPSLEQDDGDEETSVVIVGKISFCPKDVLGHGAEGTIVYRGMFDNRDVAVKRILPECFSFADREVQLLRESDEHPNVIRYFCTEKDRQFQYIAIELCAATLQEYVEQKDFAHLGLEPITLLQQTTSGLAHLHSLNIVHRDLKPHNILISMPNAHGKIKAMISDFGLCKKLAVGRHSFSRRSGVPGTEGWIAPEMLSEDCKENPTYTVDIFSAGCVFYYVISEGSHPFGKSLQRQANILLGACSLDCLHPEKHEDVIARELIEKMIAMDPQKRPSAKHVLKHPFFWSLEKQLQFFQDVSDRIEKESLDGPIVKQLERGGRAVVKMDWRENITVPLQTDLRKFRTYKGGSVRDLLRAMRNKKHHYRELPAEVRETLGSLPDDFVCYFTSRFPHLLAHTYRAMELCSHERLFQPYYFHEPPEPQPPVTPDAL"}
{"data": "Set 1", "host": "mouse", "sample": "microsomes or S9", "tested at": "2 µM", "time": "0.5 h"}
{"Compound": "COc1ccc(CCc2n[nH]c(NC(=O)Cn3cc(OC)c(=O)cc3C)n2)cc1", "remaining compound [%]": 95.2}
{"Compound": "COc1ccc(-c2cc(-c3nc4c5ccccc5ncn4n3)n[nH]2)cc1", "remaining compound [%]": 21.2}
{"Compound": "O=C(O)C(c1c[nH]c2ccccc12)N1CCN(CC(=O)N2CCCCCC2)CC1 (stereo not shown)", "remaining compound [%]": 98.8}
{"Compound": "CCN(CC(=O)NC)C(=O)c1cc(C)c(C)c(S(=O)(=O)NC)c1", "remaining compound [%]": 85}
{"Compound": "CC1CCC(NC(=O)c2ccc(CN3C(=O)NC4(CCS(=O)(=O)CC4)C3=O)cc2)CC1 (stereo not shown)", "remaining compound [%]": 66.1}
{"Compound": "COC(=O)c1cn2c(nc3cc(F)c(F)cc32)c(C#N)c1O", "remaining compound [%]": 84}
{"data": "Set 2", "target": "JUN, bZIP domain (human)", "method": "DHFR protein complementation", "sample": "yeast", "notes": "single substitutions, most at no-binding floor", "relative to": "wild-type JUN-FOS pair", "reading": "higher = stronger binding", "starting sequence": "JUN, bZIP domain (human); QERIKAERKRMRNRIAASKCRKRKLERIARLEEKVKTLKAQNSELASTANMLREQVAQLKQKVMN; partner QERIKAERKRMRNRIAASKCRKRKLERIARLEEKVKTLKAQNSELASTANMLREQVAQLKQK"}
{"Substitution": "K39M", "binding fitness [natural log]": -0.152}
{"Substitution": "K39T", "binding fitness [natural log]": -0.0088}
{"Substitution": "K36Y", "binding fitness [natural log]": -0.689}
{"Substitution": "I28L", "binding fitness [natural log]": -0.437}
{"Substitution": "T48Y", "binding fitness [natural log]": -0.394}
{"Substitution": "S47D", "binding fitness [natural log]": -0.0658}
{"Substitution": "Q55S", "binding fitness [natural log]": -0.893}
{"Substitution": "R30H", "binding fitness [natural log]": -0.167}
{"data": "Set 3", "Compound": "COc1ccc2c(O[C@@H]3C[C@H]4C(=O)N[C@]5(C(=O)O)CC5/C=C\\CCCCC[C@H](NC(=O)OC5CCCC5)C(=O)N4C3)cc(-c3csc(NC(=O)C(C)C)n3)nc2c1C (stereo partly shown)", "effect on": "cell-free assay", "method": "competition with immobilised ligand", "tested at": "1 µM"}
{"target": "SBK1 (Homo sapiens, UniProt Q52WX2)", "remaining binding [%]": 98}
{"target": "STK36 (Homo sapiens, UniProt Q9NRP7)", "remaining binding [%]": 93}
{"target": "EGFR (Homo sapiens, UniProt P00533, del747-750/T751S)", "remaining binding [%]": 62}
{"target": "FLT3 (Homo sapiens, UniProt P36888, D835H)", "remaining binding [%]": 73}
{"target": "MAP2K4 (Homo sapiens, UniProt P45985)", "remaining binding [%]": 100}
{"target": "ERN1 (Homo sapiens, UniProt O75460)", "remaining binding [%]": 79}
{"target": "WEE1 (Homo sapiens, UniProt P30291)", "remaining binding [%]": 100}
{"target": "MAP3K15 (Homo sapiens, UniProt Q6ZN16)", "remaining binding [%]": 70}
{"target": "CDK17 (Homo sapiens, UniProt Q00537)", "remaining binding [%]": 100}
{"target": "ACVR1B (Homo sapiens, UniProt P36896)", "remaining binding [%]": 100}
{"target": "SRPK1 (Homo sapiens, UniProt Q96SB4)", "remaining binding [%]": 100}
{"target": "CDK13 (Homo sapiens, UniProt Q14004)", "remaining binding [%]": 77}
{"target": "NEK3 (Homo sapiens, UniProt P51956)", "remaining binding [%]": 76}
{"target": "MYLK4 (Homo sapiens, UniProt Q86YV6)", "remaining binding [%]": 81}
{"target": "DYRK1B (Homo sapiens, UniProt Q9Y463)", "remaining binding [%]": 74}
{"data": "Set 4", "Compound": "O=C1NC(=O)/C(=C/c2ccc3nccnc3c2)S1", "effect on": "enzyme activity", "mode": "inhibitor", "tested at": "0.5 µM", "relative to": "control"}
{"target": "NEK1 (Homo sapiens, UniProt Q96PY6)", "remaining activity": "73.6%"}
{"target": "TEK (Homo sapiens, UniProt Q02763)", "remaining activity": "89.5%"}
{"target": "RPS6KA2 (Homo sapiens, UniProt Q15349)", "remaining activity": "85.4%"}
{"target": "GRK7 (Homo sapiens, UniProt Q8WTQ7)", "remaining activity": "99.8%"}
{"target": "MERTK (Homo sapiens, UniProt Q12866)", "remaining activity": "92.2%"}
{"target": "CSNK1G3 (Homo sapiens, UniProt Q9Y6M4)", "remaining activity": "79.9%"}
{"target": "EPHA3 (Homo sapiens, UniProt P29320)", "remaining activity": "97.1%"}
{"target": "WEE1 (Homo sapiens, UniProt P30291)", "remaining activity": "83.1%"}
{"target": "MAPK3 (Homo sapiens, UniProt P27361)", "remaining activity": "87.8%"}
{"target": "LCK (Homo sapiens, UniProt P06239)", "remaining activity": "98.6%"}
{"target": "FGFR1 (Homo sapiens, UniProt P11362)", "remaining activity": "88.5%"}
{"target": "GSK3B (Homo sapiens, UniProt P49841)", "remaining activity": "93.4%"}
{"target": "MST1R (Homo sapiens, UniProt Q04912)", "remaining activity": "97.8%"}
{"target": "JAK3 (Homo sapiens, UniProt P52333)", "remaining activity": "97.2%"}
